Experimental data pooled from the literature.
Numbered parts are unrelated; each lists some results of a single study.

Series 1
Target: Histone acetyltransferase KAT6A, winged helix 2, GST fusion (KAT6A, Homo sapiens, UniProt Q92794, residues 85-181)
Method: protein binding microarray
Form: double-stranded DNA, one strand shown
Matrix: in vitro
Tested at: not given
Notes: 8-mer, flanks averaged, mean of 2 arrays, mostly near background
Relative to: not given
Reading: higher = stronger binding
Target sequence (chain): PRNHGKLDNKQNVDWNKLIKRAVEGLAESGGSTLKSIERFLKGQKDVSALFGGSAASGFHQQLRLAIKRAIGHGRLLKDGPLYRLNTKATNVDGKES
| Strand | E-score |
| --- | --- |
| ATTTCTGA | -0.0251 |
| CAGTCTAA | -0.125 |
| CACAGGAA | -0.0317 |
| CACCAAAA | 0.0567 |
| AACTTCAA | -0.101 |
| AATCCGCT | 0.0336 |

Series 2
Target: human cyclin B2
Observed: peptide binding
Method: yeast competitive growth sequencing
Form: peptide
Organism: Saccharomyces cerevisiae
Strain: cyclin B2-Cln2 fusion
Tested at: concentration not given
Notes: peptide tiling library
Reading: direction not given
| Molecule | binding enrichment score |
| --- | --- |
| FQDSGYNELKSCSFDN | 0.652 |
| RRVLCFDS | 0.338 |
| DSDSDSEGGAAGGEAD | 0.818 |

Series 3
Target: Ras GTPase-activating protein-binding protein 1, full length (G3BP1, Homo sapiens, UniProt Q13283)
Sequence of UniProt Q13283 (whole entry, looked up): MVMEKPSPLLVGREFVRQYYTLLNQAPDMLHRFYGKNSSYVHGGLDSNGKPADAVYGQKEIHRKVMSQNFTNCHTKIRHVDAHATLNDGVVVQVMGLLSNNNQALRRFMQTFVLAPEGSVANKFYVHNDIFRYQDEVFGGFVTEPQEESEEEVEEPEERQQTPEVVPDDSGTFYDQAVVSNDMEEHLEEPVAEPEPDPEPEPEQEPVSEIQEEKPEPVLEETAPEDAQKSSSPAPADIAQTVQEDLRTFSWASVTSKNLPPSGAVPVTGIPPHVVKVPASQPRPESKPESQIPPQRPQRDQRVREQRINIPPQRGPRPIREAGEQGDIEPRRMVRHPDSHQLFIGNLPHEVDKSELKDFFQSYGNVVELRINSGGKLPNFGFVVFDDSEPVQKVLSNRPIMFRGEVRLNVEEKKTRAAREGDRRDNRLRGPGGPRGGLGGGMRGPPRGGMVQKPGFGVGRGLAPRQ
Method: RNA Bind-n-Seq
Form: RNA
Matrix: in vitro
Tested at: 200 nM
Notes: whole 134-nt RNA, ends assumed
Together with: 150 mM KCl
Relative to: input library
Reading: higher = stronger binding
| Strand | log2 enrichment |
| --- | --- |
| GGGAGUUCUACAGUCCGACGAUCUGGGAGGUGGAUUUUGUUUAUUUUUUUAGCUCAUUUCCAGGGGUGGGAAUUUUUUUUUAAUAUGUGUCAUGAAUAAAGUAGUUUUUGAAAUGGAAUUCUCGGGUGUCAAGG | 0.26 |
| GGGAGUUCUACAGUCCGACGAUCUCCUGUGCUACACAUCGUAUGUACCGAAUCGGGAAAAAGGGGAAAAAGGGGAAAAAGGGGAAAGUAUUAUGUUACGCCGUUCGGAUCUGCUGGAAUUCUCGGGUGUCAAGG | 0.298 |
| GGGAGUUCUACAGUCCGACGAUCGCAGGAAGUAAAAACAAAUGGAAAUGCUUCGGAUAGUGGCAGGGGUGGGGGUUGCUAAGGAAAGGUUGGGAUGGGAGUGGGUAAAGAGUUUGGAAUUCUCGGGUGUCAAGG | 0.682 |
| GGGAGUUCUACAGUCCGACGAUCUGGGAGGUGGAUUUUGUUUAUUUUUUUAGCUCAUUUCCAGGGGUGUGAAUUUUUUUUUAAUAUGUGUCAUGAAUAAAGUUGUUUUUGAAAUGGAAUUCUCGGGUGUCAAGG | 0.345 |

Mixed results
| Substance | target | assay | system | setting | scale | endpoint | value |
| --- | --- | --- | --- | --- | --- | --- | --- |
| PhoQ, residues 284 288 289 292 302 303 SNGLAW | PhoP, residues 12 14 15 18 19 NFCKL (Escherichia coli, UniProt P23836) | Sort-seq, measured: YFP reporter | E. coli | PhoQ-PhoP variant library, together with: 10 µM Mg2+ | relative to: high Mg2+ state, higher = stronger signaling | fold induction | 10.1 |
